Values quoted from earlier work as cited in several papers.
Each line is one published result; not all experiments were run side by side.
UniProt P0DOF5, sequence (whole entry, looked up): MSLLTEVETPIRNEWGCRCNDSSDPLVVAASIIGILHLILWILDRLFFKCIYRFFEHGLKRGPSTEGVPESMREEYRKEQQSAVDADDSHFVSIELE

Molecule | tested on | assay | system | setting | quantity | value
CN(C)CCCN1c2ccccc2Sc2ccc(C(F)(F)F)cc21 | MERS-CoV | viral replication, ELISA | Vero E6 | – | EC50 | 5.76 µM
M2 (Influenza A virus, UniProt P0DOF5) | – | NMR, item: His37 | – | tetramer, highest pKa, closed state | pKa | 8.2
M2 transmembrane peptide (Influenza A virus) | – | solid-state NMR, item: His37 | virus-mimetic membrane with cholesterol | membrane-bound tetramer, macroscopic, fourth protonation | pKa | 4.2
MLEPFQILSISSFILSALHFMAWTIGHLNQIKR (BM2 transmembrane domain (Influenza B virus)) | – | solid-state NMR, item: His27 | peptide, lipid membrane | average of tetrad pKa values | pKa | 6.4

Some of these lines once more:
Molecule | tested on | assay | system | setting | quantity | value
CN(C)CCCN1c2ccccc2Sc2ccc(C(F)(F)F)cc21 | MERS-CoV | viral replication, ELISA | Vero E6 | – | EC50 | 5.76 µM
